Values quoted from earlier work that unrelated publications cite.
Compare with care: the assays were run in different laboratories. Values joined by “and” are separate records of one study, mostly repeats; a detail may differ. ≈ marks a conversion by molar mass, not a printed value.

Compound | tested on | assay | system | setting | scale | quantity | value
O=C(NC1CCc2ccccc21)C1CCN(c2ncccc2-c2nc(-c3ccccc3)no2)CC1 (centres unmarked) | Plasmodium | parasite growth |  |  |  | IC50 | 1.11 µM
O=S(=O)(c1ccc(-c2ccc3ncnc(Nc4ccc(OCc5ccc(C(F)(F)F)c(F)c5)c(Cl)c4)c3c2)cc1)N1CCOCC1 | Trypanosoma brucei | parasite growth |  |  |  | EC50 | 0.54 µM
CCN(C)C(C)CC(O)Cn1c2ccccc2c2ccccc21 (centres unmarked) | Plasmodium | parasite growth |  |  |  | IC50 | 12.7 µM
CC(C)C[C@@H](NC(=O)[C@H](C)NC(=O)CNC(=O)[C@@H](NC=O)C(C)C)C(=O)N[C@@H](C)C(=O)N[C@@H](C(=O)N[C@H](C(=O)N[C@@H](C(=O)N[C@@H](Cc1c[nH]c2ccccc12)C(=O)N[C@H](CC(C)C)C(=O)N[C@@H](Cc1c[nH]c2ccccc12)C(=O)N[C@H](CC(C)C)C(=O)N[C@@H](Cc1c[nH]c2ccccc12)C(=O)N[C@@H](C(=O)N[C@@H](Cc1c[nH]c2ccccc12)C(=O)NCCO)C(C)C)[C@H](C)O)C(C)C)C(C)C | Listeria monocytogenes |  | 10403S |  |  | MIC | 2.1 µM (≈ 3.93 µg/mL)
O=C(CCCOc1cccc(Br)c1)N[C@H]1CCSC1=O | Pseudomonas aeruginosa | pyocyanin production | PA14 | 100 µM |  | inhibition | 80%
c1ccc2c(c1)CCNC2c1c[nH]c2cnccc12 (centres unmarked) | Escherichia coli | efflux pump inhibition | AG100 AcrAB-TolC expressing | 50 µM | relative to: untreated cells | relative fluorescence index | 0.47
CN1CCN(C(=O)c2cccc(CC(O)Cn3c4ccccc4c4ccccc43)c2)CC1 (centres unmarked) | Plasmodium | parasite growth |  |  |  | IC50 | 14.9 µM
Fc1cccc(COc2ccc(Nc3ncnc4ccc(-c5cccc(CN6CCCCC6)c5)cc34)cc2Cl)c1 | Trypanosoma brucei | parasite growth |  |  |  | EC50 | 0.65 µM
CCN(CC)CC#CCNc1ccnc2cc(Cl)ccc12 | Plasmodium falciparum | parasite growth, SYBR Green I | K1 |  |  | IC50 | 0.0479 µM and 0.0521 µM
[2H]C([2H])([2H])C1(C([2H])([2H])[2H])NC(=O)N(c2ccc(F)c(C(C)(F)F)c2)C1=O | Schistosoma mansoni |  | juvenile, infected mice | oral, 100 mg/kg single dose |  | worm burden reduction | 62 to 100% and 100%
CCOC(=O)[C@H]1c2c(ccc3ccccc23)O[C@@H]2c3[nH]c4ccccc4c3CCN21 | Staphylococcus aureus | efflux pump inhibition | ATCC 25923 | 50 µM | relative to: untreated cells | relative fluorescence index | 0.01
CNC(C)(C)CCC(O)Cn1c2ccccc2c2ccccc21 (centres unmarked) | Plasmodium | parasite growth |  |  |  | IC50 | 2.08 µM
CCOC(=O)[C@H]1c2c(ccc3ccccc23)O[C@@H]2c3ccsc3CCN21 | Staphylococcus aureus | efflux pump inhibition | ATCC 25923 | 100 µM | relative to: untreated cells | relative fluorescence index | 0.22
CN1CCN(C(=O)c2cccc(CC(O)Cn3c4ccc(Br)cc4c4cc(Br)ccc43)c2)CC1 (centres unmarked) | Plasmodium | parasite growth |  |  |  | IC50 | 2.34 µM
CCCCCCCCCC(=O)CC(=O)Nc1cccc(OC)c1 | Pseudomonas aeruginosa |  | PAO1 | 50 µM |  | pyocyanin inhibition | 75%
CC(C)(C)OCc1ccc(-c2ccc3ncnc(Nc4ccc(OCc5cccc(F)c5)c(Cl)c4)c3c2)cc1 | Trypanosoma brucei | parasite growth |  |  |  | EC50 | 0.22 µM
c1cnc2[nH]cc(C3NCCc4sccc43)c2c1 (centres unmarked) | Escherichia coli | efflux pump inhibition | AG100 AcrAB-TolC expressing | 50 µM | relative to: untreated cells | relative fluorescence index | 0.06
c1ccc(Nc2ncnc3ccc(-c4cccc(N5CCOCC5)c4)cc23)cc1 | Trypanosoma brucei brucei | cell growth | Lister 427 |  |  | GI50 | 11 µM
O=C(CCCOc1ccc(Cl)cc1)N[C@H]1CCOC1=O | Vibrio harveyi | bioluminescence, antagonist | BB120 |  |  | IC50 | 40 µM
O=S(=O)(c1ccc(-c2ccc3ncnc(Nc4ccc(OCc5cccc(F)c5)c(Cl)c4)c3c2)cc1)N1CCNCC1 | Trypanosoma brucei | parasite growth |  |  |  | EC50 | 0.28 µM
NS(=O)(=O)c1nnc(NC(=O)CCc2ccccc2)s1 | Enterococcus faecalis |  | NR-31971 |  |  | MIC | 0.384 µM (≈ 0.12 µg/mL)

Compound | tested on | assay | system | setting | scale | quantity | value
O=C(CCCCCCCCCN=C=S)CC(=O)N[C@H]1CCOC1=O | Pseudomonas aeruginosa |  | PAO1 | 50 µM |  | pyocyanin inhibition | 40%
COc1ccc(Nc2nc(Nc3ccc(OCC[18F])cc3)ncc2Br)cc1 |  |  | S180 tumour-bearing mice | intravenous, 5 min | relative to: tumour over muscle | tumour to tissue ratio | 2.46
CN(C)CCC(O)Cn1c2ccc(Br)cc2c2cc(Br)ccc21 (centres unmarked) | Plasmodium | parasite growth |  |  |  | IC50 | 1.67 µM
c1ccc2c(c1)CCNC2c1c[nH]c2ccncc12 (centres unmarked) | Escherichia coli | efflux pump inhibition | AG100 AcrAB-TolC expressing | 50 µM | relative to: untreated cells | relative fluorescence index | 0.04
O=C(CCCCCONC(=O)c1c[nH]c2ccccc12)NO | Plasmodium falciparum | parasite growth | 3D7 |  |  | IC50 | < 0.1 µM and 0.07 µM
O=S(=O)(c1ccc(-c2ccc3ncnc(Nc4ccc(OCc5cccc(F)c5)cc4)c3c2)cc1)N1CCOCC1 | Trypanosoma brucei | parasite growth |  |  |  | EC50 | 0.65 µM
O=C(Cc1ccc(Br)cc1)N[C@H]1CCOC1=O | Pseudomonas aeruginosa |  | PAO1 | 50 µM |  | pyocyanin inhibition | 10 to 30%
COc1ccc(Nc2ncnc3ccc(-c4ccc(S(=O)(=O)N5CCN(C)CC5)cc4)cc23)cc1Cl | Trypanosoma brucei | parasite growth |  |  |  | EC50 | 0.78 µM
O=C1C=C(Br)/C(=C/Br)O1 | Pseudomonas aeruginosa | exoprotease production | PAO1 | 10 µM |  | inhibition | 80%
CC(C)C[C@@H](NC(=O)[C@H](C)NC(=O)CNC(=O)[C@@H](NC=O)C(C)C)C(=O)N[C@@H](C)C(=O)N[C@@H](C(=O)N[C@H](C(=O)N[C@@H](C(=O)N[C@@H](Cc1c[nH]c2ccccc12)C(=O)N[C@H](CC(C)C)C(=O)N[C@@H](Cc1c[nH]c2ccccc12)C(=O)N[C@H](CC(C)C)C(=O)N[C@@H](Cc1c[nH]c2ccccc12)C(=O)N[C@H](CC(C)C)C(=O)N[C@@H](Cc1c[nH]c2ccccc12)C(=O)NCCO)C(C)C)C(C)C)C(C)C | Streptococcus pneumoniae |  | NBRC 102642 |  |  | MIC | 0.0083 µM (≈ 0.0156 µg/mL)
O=C(NCc1ccc2c(c1)OCO2)C1CCN(c2ncnc3onc(-c4cccc(F)c4)c23)CC1 | Plasmodium | parasite growth |  |  |  | IC50 | 0.98 µM
CC(=O)Nc1nnc(S(N)(=O)=O)s1 | Enterococcus faecium |  | HM-965 |  |  | MIC | 9 µM (≈ 2 µg/mL)
c1ccc2c(c1)CCCNC2c1c[nH]c2ncccc12 (centres unmarked) | Escherichia coli | efflux pump inhibition | AG100A AcrAB-TolC deleted | 50 µM | relative to: untreated cells | relative fluorescence index | 0.57
NS(=O)(=O)c1nnc(NC(=O)C2CCCCC2)s1 | Enterococcus faecium |  | HM-965 |  |  | MIC | 0.861 µM (≈ 0.25 µg/mL)
COCC(=O)Nc1c(C(=O)OC)n(CCC(C)C)c2ncc(NC(C)CCC=C(C)C)cc12 (centres unmarked) | Plasmodium | parasite growth |  |  |  | IC50 | 3.11 µM
CCCCCCCCCCCCn1nnc(CC(=O)O)n1 | Pseudomonas aeruginosa |  | PAO1 | 50 µM |  | pyocyanin inhibition | no inhibition
Fc1cccc(COc2ccc(Nc3ncnc4ccc(-c5ccc(N6CCCCC6)cc5)cc34)cc2Cl)c1 | Trypanosoma brucei | parasite growth |  |  |  | EC50 | 0.38 µM
NS(=O)(=O)c1nnc(NC(=O)CN2CCOCC2)s1 | Enterococcus faecalis |  | NR-31972 |  |  | MIC | 13 µM (≈ 4 µg/mL)
O=C(c1cncc(-c2ccc3ncnc(Nc4ccc(OCc5cccc(F)c5)c(Cl)c4)c3c2)c1)N1CCOCC1 | Trypanosoma brucei | parasite growth |  |  |  | EC50 | 0.34 µM
c1ccc2c3c([nH]c2c1)C(c1c[nH]c2ncccc12)NCC3 (centres unmarked) | Escherichia coli | efflux pump inhibition | AG100 AcrAB-TolC expressing | 50 µM | relative to: untreated cells | relative fluorescence index | 0.01

For quick reference, copied from above:
Compound | tested on | assay | system | setting | scale | quantity | value
O=C(CCCOc1cccc(Br)c1)N[C@H]1CCSC1=O | Pseudomonas aeruginosa | pyocyanin production | PA14 | 100 µM |  | inhibition | 80%
c1ccc2c(c1)CCNC2c1c[nH]c2cnccc12 (centres unmarked) | Escherichia coli | efflux pump inhibition | AG100 AcrAB-TolC expressing | 50 µM | relative to: untreated cells | relative fluorescence index | 0.47
CN1CCN(C(=O)c2cccc(CC(O)Cn3c4ccccc4c4ccccc43)c2)CC1 (centres unmarked) | Plasmodium | parasite growth |  |  |  | IC50 | 14.9 µM
Fc1cccc(COc2ccc(Nc3ncnc4ccc(-c5cccc(CN6CCCCC6)c5)cc34)cc2Cl)c1 | Trypanosoma brucei | parasite growth |  |  |  | EC50 | 0.65 µM
